# Measured values collected from several papers.
# Numbered parts are unrelated; each lists some results of a single study.

# Sample 1
# Target: Interferon regulatory factor 5, full length, phosphomimetic (IRF5, Homo sapiens, UniProt Q13568-2, residues 1-514, S451D/S453D/S456D/S462D)
# Technique: protein-binding microarray
# Form: double-stranded DNA, one strand shown
# Medium: in vitro
# Concentration: 940 nM top
# Setting: 60-bp whole probe
# Together with: salmon DNA 0.4 mg/ml
# Baseline: random background probes
# Direction: higher = stronger binding
# Shared flanks, not repeated: GCCTAGCAC … GTCTTGATTCGCTTGACGCTGCTG
Oligonucleotide,fitted relative affinity
GACGGTTTCCCACTGCTGACGTGCTAG,0.842 z-score
GATGGACTGGGGACTGGGGACGTGCTA,-0.357 z-score
TTAGATTTCCGGTATCGATTAGTGCTA,4.42 z-score
GCCTTTTTTTTTTTTTCTGAGTGCTAG,1.61 z-score
GACGGTTTCGACTATCGGGCCGTGCTA,8.35 z-score
TTAGGTTTCGGGTTTCGGTCAGTGCTA,11 z-score
TTTCTTTTGCTTGTTCTTAGCGTGCTA,2.72 z-score
AGAATTTTCATTAACTGTTAGTGCTAG,0.433 z-score
CTAGAACTGGGGTATCGATTAGTGCTA,2.99 z-score
TTAGGTTTCGGCTTCGGTTAGTGCTAG,9.74 z-score
TCATTCCTCTTTCTTTGACTGTGCTAG,2.09 z-score
TTAGGACTGGAATATCGGTTAGTGCTA,-0.151 z-score
TTAGATCTCAGTCACGATTAGTGCTAG,0.547 z-score
TTAGGTTTCGGTTTTGGTTAGTGCTAG,15.1 z-score
GACGGACTGGGGAATCGGGACGTGCTA,-0.293 z-score
TTAGGTATCCTACTGCTATAGTGCTAG,0.124 z-score
GACGATTACAGTTCCGAGACGTGCTAG,0.309 z-score
TCAGATTTCCACTTTCTACTGTGCTAG,1.3 z-score
CTCTTGATCCCGAACTGGCCGTGCTAG,0.0455 z-score
GACGGTATCGACTATCGGGCCGTGCTA,4.6 z-score
TCAATTTTGCTTCTAGAACTGTGCTAG,-0.104 z-score
TCACCTCTAACTTTCCAACTGTGCTAG,0.912 z-score
TTAGGACTGGGTTTAGGTTAGTGCTAG,-0.166 z-score
GACGATATCGGGTATCGAGTCGTGCTA,1.27 z-score
GACGGACTGCTTCTCCTGGCGTGCTAG,-0.0638 z-score

# Sample 2
# Target: RNA binding protein fox-1 homolog 2, RRM domain, GST-SBP tag (RBFOX2, Homo sapiens, UniProt O43251-10, residues 100-194)
# Technique: RNA Bind-n-Seq
# Form: RNA
# Medium: in vitro
# Concentration: 365 nM
# Setting: natural RNA segment, single round, ends assumed
# Baseline: no-protein control
# Direction: higher = stronger binding
# Shared flanks, not repeated: GGGAGUUCUACAGUCCGACGAUC … UGGAAUUCUCGGGUGCCAA
# Construct (chain): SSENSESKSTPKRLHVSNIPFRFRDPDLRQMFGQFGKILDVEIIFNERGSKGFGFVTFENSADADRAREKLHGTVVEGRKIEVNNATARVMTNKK
Oligonucleotide,RBNS enrichment (R)
GAGCAGCUCACACUCCCUCCGCUGGGAACGAUGGCUUCUGCCUAGUACCUAUCCUUGUGUUUCUGAUGCAGUGGUAGCAUUGGUUCAAGUUCUCUCCUGCUGUGGUCAGA,0.318
GUUUUUCAAUAUAUGAACUUUUGUAUGGAAUUUUUUUGUAAUAAGUGAUCAAGGUUACAAAUUUUUUUUUUAAAUAGAAAAGAGAAGAAAAACGUUGUAAGAAGGCAAUA,0.887
AGCCAGUAAGAAAGUGACAGAAGCAAUGAAUGUCUUAAUGCAGUAUAGUUAAAAUGGCUUCCCACAGGGUAGAUAAUUAUCCAGGAUCCUUCCUUUUCCUUCUUCCUCCA,1.01
UUGAAGAGUUUUAGAAGAAAUUCUCAUGGAAAUGCCCUAUCCCUGGACCUUCAGCCUCUUCUCUUCCAGUUUACCUCCAGGUGGGGCUGAUAUGCCACAUAGGAUGCUCC,0.446
AUGGAUGGAUAAUAAGCCAAGUCUUGAAUCAUUCCUAUCAAGAUUAGUAUACAUGAGGAAGAGGUGGCAUGGGGGGAAGGGGCUCUGGGAGUUCAGAGCUGAGUACUUGU,2.29
CUUAAAAAACAUGACAAGUCAUAACAGUUUUAAAGGGAAGACUUGUAAACUGGAAAAUCAUGUAUUUCUAAAGGCUGUGUACCUAUAAAUUAGUUGAGAAAGCUCUGUUU,0.616
CACCUCCACUAACGCUGUCUCAGUGUUUUCUCUCUCUCUCUCGAGCUCGUAGUCCAGCGCCUGACUCUGCGUCGGCCCAUCCCACGCUGGGGCCAGCAGAAAGAAGACAG,0.627
CAAUAUGAGUAAAAUCUGUCCCUUUUUCCCCCUUUGAAUGAGGUCUUCCAUGUUUGAGGGAAAGUCUUGCACUAUUGCAUAUAUUUUGGGGACACAGAUUUUCAUAGUUU,0.587
GGGUGCGUCUGCAGCUCCUCCCCUUGGGCAGCCUGGUUCUCCCGGAGGACCUUUCCUUGGGGCCCUGCUUCAUGACGAUGCUGCCUGUGUCACCCUCUACCAUCUGUAAA,0.422
GUCUCGCUCUGUCGCCCAGUGUGGAGUGCAGUGGUGUGAUCUUGGCUCACUGCAAACUCCGCCUCCCAGGUUCAAGCGAUUCUCCCACCUCAGCCUCCUGAGUUGGGUCC,0.369
UUCGCAGAUGUGUAUACUCAUGAUAGGUCAGAAAGUGUAUCCGCUACAAUAAAGUUCUGGUUCUAACAACUCCAGCCGGAGCGGGGUUUGUCUUCUCUCCUGUUUUGGUU,0.266
GAAGCUGCCCGUUGCUGCUACUGCACCUCACCACCAACUCCCUCAUGGACAGACAGAUCCCUGAUGUCUGUCACUAUAGACACACGUGUUGUACAUGUGGCCCUUAACAC,0.487

# Sample 3
# Target: PABPC1L2, full length, GST fusion (mouse, UniProt A0ABA7IW68)
# Technique: RNAcompete
# Form: RNA
# Medium: in vitro
# Concentration: 20 nM
# Setting: 7-mer, probes averaged, single round
# Baseline: mean of 7-mers
# Direction: higher = stronger binding
# Residues (chain): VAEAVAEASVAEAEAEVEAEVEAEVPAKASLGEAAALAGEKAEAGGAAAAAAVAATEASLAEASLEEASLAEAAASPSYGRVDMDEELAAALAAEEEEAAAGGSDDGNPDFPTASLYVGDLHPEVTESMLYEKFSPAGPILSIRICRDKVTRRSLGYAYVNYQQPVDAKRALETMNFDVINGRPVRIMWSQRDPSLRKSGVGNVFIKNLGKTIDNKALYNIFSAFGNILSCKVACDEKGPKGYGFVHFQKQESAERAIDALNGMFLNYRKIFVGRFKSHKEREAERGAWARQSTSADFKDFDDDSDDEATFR
Oligonucleotide,7-mer Z-score
CAUUGAU,-0.0917
GACUACG,-0.121
CGAGGUA,0.1
GCACCAG,-0.103
UAAUGAU,-0.211
GUUCGAC,-0.325
ACAGUGA,-0.115
ACUAACG,-0.0899
ACGGACG,0.0352
CGAGGCU,-0.0989
AUCAUAC,-0.202
UGGUACU,0.000733
CUAGGGA,0.211
UUGCUCG,-0.333
GCACGAG,0.0732
GCGCCCG,-0.342
AACCUCA,-0.0899
CAUGCCC,-0.28
ACUAAGC,-0.0192
ACAUGAU,-0.0138
ACGAGUU,-0.226
GUGAAUU,-0.182
GCAUGAA,0.193
CACGUGC,-0.104
ACCUCUG,-0.347

# Sample 4
# Target: RING finger protein unkempt homolog, zinc fingers 1-6, GST-SBP tag (UNK, Homo sapiens, UniProt Q9C0B0, residues 30-357)
# Technique: RNA Bind-n-Seq
# Form: RNA
# Medium: in vitro
# Concentration: not given
# Setting: RNA with constant flanks, human and mouse sites, ends assumed
# Baseline: input RNA pool
# Direction: higher = stronger binding
# Shared flanks, not repeated: GGGAGUUCUACAGUCCGACGAUC … CAACAGAGGAUUGAGCAUCA
# Construct (chain): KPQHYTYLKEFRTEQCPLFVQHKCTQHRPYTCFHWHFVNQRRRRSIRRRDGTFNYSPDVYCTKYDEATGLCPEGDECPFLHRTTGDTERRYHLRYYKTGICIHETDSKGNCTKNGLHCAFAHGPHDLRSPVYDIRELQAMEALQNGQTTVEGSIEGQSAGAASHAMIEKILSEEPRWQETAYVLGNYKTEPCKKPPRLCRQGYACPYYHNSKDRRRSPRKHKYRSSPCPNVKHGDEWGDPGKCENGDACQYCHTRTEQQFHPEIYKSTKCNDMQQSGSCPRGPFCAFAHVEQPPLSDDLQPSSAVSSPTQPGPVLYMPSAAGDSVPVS
Oligonucleotide,bound/input enrichment
GCUUCUUGUAGUACAAACAUCAAUAAUCAGGAAAGUCAGGAACUUUCUGAAUCCCUGAAAGAUAGUGCCACCAGCAAAACUUUUGAAAAGAAUGUUGUACGGCAGAAUAAAGAAAGCAUA,0.35 ratio
CGACAUGUCCUCACCUACAUGGAGGAUGCAGUGUGCCAGCUGCUAGAAAACAGGGAAGAUAUUAGCCAAUAUGGAAUUGCCAGGUUCUUCACUGAAUAUUUUAACAGUGUAUGCCAGGGA,0.694 ratio
AAAGAUCCUAACAUGAAAGGUGCAAUGCUUACAAACACUGGAAAAUAUGCAAUACCAACUAUAGAUGCAGAGGCCUAUGCAAUCGGGAAGAAAGAGAAACCACCCUUCUUACCAGAGGAG,0.191 ratio
GCUUUGCAAGGGUAGCUGGGGUGAAUUUGCACCAAGGCAGCAGCAUAGUCGCCGCAGUUCCAUCUUCGUCUCCGCGAUGUUGCCCUUAGCCAAAAACGCACUAAGCCGUCUCCAAGUUCG,0.0868 ratio
GUAGAGCCCAGCCCCUCCCCAAUCAAGCCUGGAGAUAUUAAAAGAGGAAUUCCCAAUUAUGAAUUUAAACUUGGAUGAAGCUGGAGGCAGAUUCGUCGCUUUCUCUGGAGAAGGACAGUC,3.38 ratio
ACCACCUACAUCAAUGCCUCAACCUGUACAGUCAGCUUUCAACCGACCAACCCUCCAAUCAUAUUUGACCUUCCAAACCCACAGGGCUCCUAAAGCACUCAGCAUCCCGUUGGAAUGUGA,0.426 ratio
GGGCGACCCAGAACAGCCCUCGCCGUGGGGACGGGAGCGCACCCGGGGCCCAUUGCCUUGUGCUGGCUCGCUGUCCCUUGGAGCCGAAACCGAAAGGAGCCCGGCGUCGGUCCGGAGCCG,0.0728 ratio
GAUUCUUACAUCAAAGCAGAUGAUCCUUCAUCUUACAUGGAAGUUGUCCAGGCUGCCAAUGCCAGCGGAAACUGGGAAGAAUUGGUGAAGUAUUUGCAGAUGGCACGCAAGAAGGCUCGA,0.137 ratio
UUCAAAGAGAAAACCCAGCAGUGGAAGUUGCUUGGCCAAUCCCAAGAUAAUGAAAAGGAAUUAGCUGCCCUCUUCCAGCUAUGGCUAGAGACCAAAGAUCAGGCCUUCUGUAAGCAAGAA,0.154 ratio
UCUAAGGAAGACAAAAUGAAAGAAAGUGAAACAUUUUCCGAUUCAUCUCCCAUUGAGAUAAUAGAUGAGUUUCCCACAUUUGUCAGUGCUAAAGAUGAUUCUCCUAAGGAGUACACUGAC,0.0779 ratio
ACUGUUGUUAAGCACUGUGUUCCAGACCGUGUCUGACUUAGUGUAACCUAGGAGAUUUUAUAGUUUUAUUUUAAUGAAACCCUGAUUGACGCACAGCAGUGGGGAGAACAGCGUCUUUUA,16 ratio

# Sample 5
# Target: Histone acetyltransferase KAT6A, winged helix 1, GST fusion (KAT6A, Homo sapiens, UniProt Q92794, residues 1-85)
# Technique: protein binding microarray
# Form: double-stranded DNA, one strand shown
# Medium: in vitro
# Concentration: not given
# Setting: 8-mer, flanks averaged, mean of 2 arrays, mostly near background
# Baseline: not given
# Direction: higher = stronger binding
# Construct (chain): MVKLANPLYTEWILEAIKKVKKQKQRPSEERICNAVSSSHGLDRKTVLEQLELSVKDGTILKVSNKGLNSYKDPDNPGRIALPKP
Oligonucleotide,E-score
ACGTTATG,-0.0411
AGACCCAA,-0.142
GGGTTTCA,0.15
GCGCAAGC,0.391
CGCGCAAC,0.416
AATGGGCT,-0.219
CATACTAG,-0.0858
CAGGGTGC,-0.0159
CATCCGCA,0.0467
ACTCCTCG,-0.271
AACGAGAC,0.0866
CCGATATC,0.0611
ACGTTTTG,-0.322
CAGGACCA,0.00477
ACGGAGGC,0.271
CCGAGAAG,0.0581
GGAGCCCA,-0.131
AACAGAAA,-0.182
CGACCGAG,0.206
GTAAACAA,-0.141
GCTGGGCC,0.0709
CAGCTTAA,-0.0953
CGTGTACC,0.0724
GCCTGTAA,-0.111

# For quick reference, copied from above (sample 5):
Oligonucleotide,E-score
AACGAGAC,0.0866
CCGATATC,0.0611
ACGTTTTG,-0.322
CAGGACCA,0.00477
ACGGAGGC,0.271
CCGAGAAG,0.0581
GGAGCCCA,-0.131
AACAGAAA,-0.182
CGACCGAG,0.206
